{"data": "Measurements pooled from the literature", "note": "A part holds a random share of what one study measured.", "sequence of UniProt Q92985 (whole entry, unmodified, looked up)": "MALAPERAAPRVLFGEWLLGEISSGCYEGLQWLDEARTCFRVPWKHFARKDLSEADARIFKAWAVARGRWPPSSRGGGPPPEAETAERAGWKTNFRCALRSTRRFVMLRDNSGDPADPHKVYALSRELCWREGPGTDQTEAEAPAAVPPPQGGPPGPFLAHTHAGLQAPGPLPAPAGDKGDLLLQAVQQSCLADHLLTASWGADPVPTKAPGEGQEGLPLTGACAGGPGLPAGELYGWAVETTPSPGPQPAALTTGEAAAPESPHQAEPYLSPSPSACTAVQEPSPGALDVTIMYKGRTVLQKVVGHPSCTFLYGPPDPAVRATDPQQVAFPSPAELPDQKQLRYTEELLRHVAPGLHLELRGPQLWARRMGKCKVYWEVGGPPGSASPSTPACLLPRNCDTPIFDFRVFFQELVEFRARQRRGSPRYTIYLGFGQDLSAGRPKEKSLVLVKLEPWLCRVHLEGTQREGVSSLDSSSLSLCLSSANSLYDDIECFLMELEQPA"}
{"data": "Block 1", "target": "Histone acetyltransferase KAT6A, winged helix 2, GST fusion (KAT6A, Homo sapiens, UniProt Q92794, residues 85-181)", "method": "protein binding microarray", "form": "double-stranded DNA, one strand shown", "matrix": "in vitro", "tested at": "not given", "notes": "8-mer, flanks averaged, mean of 2 arrays, mostly near background", "reference": "not given", "direction": "higher = stronger binding", "Residues (chain)": "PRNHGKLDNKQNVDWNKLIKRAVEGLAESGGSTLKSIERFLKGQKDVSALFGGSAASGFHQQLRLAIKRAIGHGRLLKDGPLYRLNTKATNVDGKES"}
{"Oligonucleotide": "ACCCATAC", "E-score": -0.0891}
{"Oligonucleotide": "AAAAGTCT", "E-score": -0.366}
{"Oligonucleotide": "AGATTATC", "E-score": -0.153}
{"Oligonucleotide": "CACGCATC", "E-score": 0.189}
{"Oligonucleotide": "ACCTTTAA", "E-score": -0.0138}
{"data": "Single results of other studies", "FOXP2 N303T/S325N N-truncated, polyQ removed": "Forkhead box protein P2, N-truncated, polyQ removed (FOXP2, Homo sapiens, UniProt O15409, residues 214-715, N303T/S325N)", "IRF3 S386D/S396D/S398D/S402D/T404D/S405D full length, phosphomimetic": "Interferon regulatory factor 3, full length, phosphomimetic (IRF3, Homo sapiens, UniProt Q14653, residues 1-427, S386D/S396D/S398D/S402D/T404D/S405D)", "sequence of UniProt O15409 (214-715, unmodified, looked up)": "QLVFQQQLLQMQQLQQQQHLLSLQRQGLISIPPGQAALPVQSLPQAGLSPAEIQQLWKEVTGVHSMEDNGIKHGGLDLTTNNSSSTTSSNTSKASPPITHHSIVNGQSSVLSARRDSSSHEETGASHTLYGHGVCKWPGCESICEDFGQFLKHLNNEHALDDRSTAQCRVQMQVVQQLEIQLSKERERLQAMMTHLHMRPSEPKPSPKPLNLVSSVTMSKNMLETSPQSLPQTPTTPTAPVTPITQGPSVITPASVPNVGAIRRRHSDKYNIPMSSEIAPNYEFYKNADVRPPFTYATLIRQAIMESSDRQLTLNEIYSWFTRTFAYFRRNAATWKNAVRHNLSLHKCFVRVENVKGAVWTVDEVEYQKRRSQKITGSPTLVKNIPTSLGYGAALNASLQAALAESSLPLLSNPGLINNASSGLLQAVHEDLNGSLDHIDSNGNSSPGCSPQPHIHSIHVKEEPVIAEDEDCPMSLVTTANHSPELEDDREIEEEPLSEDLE", "sequence of UniProt Q14653 (whole entry, unmodified, looked up)": "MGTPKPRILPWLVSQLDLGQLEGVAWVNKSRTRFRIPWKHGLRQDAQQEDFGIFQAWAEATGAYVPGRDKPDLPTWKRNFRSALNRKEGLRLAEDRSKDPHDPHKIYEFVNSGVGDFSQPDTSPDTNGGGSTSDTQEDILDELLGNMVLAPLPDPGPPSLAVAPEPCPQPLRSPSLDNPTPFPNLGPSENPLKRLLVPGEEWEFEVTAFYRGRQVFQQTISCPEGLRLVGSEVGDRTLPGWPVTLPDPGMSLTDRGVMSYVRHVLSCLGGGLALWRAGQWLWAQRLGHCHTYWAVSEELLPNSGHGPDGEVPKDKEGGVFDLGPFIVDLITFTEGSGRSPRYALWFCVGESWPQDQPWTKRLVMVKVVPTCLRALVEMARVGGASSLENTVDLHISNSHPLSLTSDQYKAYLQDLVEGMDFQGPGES"}
{"Molecule": "GCCTAGCACGACGGACTGGGACTGGGTACGTGCTAGGTCTTGATTCGCTTGACGCTGCTG", "target": "Interferon regulatory factor 7, full length, phosphomimetic (IRF7, Homo sapiens, UniProt Q92985, residues 1-503, S101K/S471D/S472D/S475D/S476D/S477D/S483D/S484D/S487D)", "test": "protein-binding microarray", "test system": "double-stranded DNA, one strand shown, in vitro", "setting": "250 nM, 60-bp whole probe, with: salmon DNA 0.4 mg/ml", "scale": "reference: random background probes, higher = stronger binding", "quantity": "log fluorescence", "result": "-0.366 z-score"}
{"Molecule": "CGCCTGTTACGGCATCAGGGCTTTGGTTTGGGATGGCTGCTTGATTACCAATTGTTCCGGCGGTATGAC", "target": "FOXP2 N303T/S325N N-truncated, polyQ removed", "test": "MITOMI", "test system": "double-stranded DNA, one strand shown, in vitro", "setting": "not given, 69-bp whole dsDNA, apparent Ka, titration fit", "scale": "reference: unmutated reference site, higher = stronger binding", "quantity": "relative association constant", "result": "0.00664 fold"}
{"Molecule": "GCCTAGCACATATATATATTGTTAGTGTAGTGCTAGGTCTTGATTCGCTTGACGCTGCTG", "target": "IRF3 S386D/S396D/S398D/S402D/T404D/S405D full length, phosphomimetic", "test": "protein-binding microarray", "test system": "double-stranded DNA, one strand shown, in vitro", "setting": "2540 nM top, 60-bp whole probe, with: salmon DNA 0.4 mg/ml", "scale": "reference: random background probes, higher = stronger binding", "quantity": "fitted relative affinity", "result": "0.589 z-score"}
{"Molecule": "PhoQ, residues 284 288 289 292 302 303 MLMVEA", "target": "PhoP, residues 12 14 15 18 19 TPWLV (Escherichia coli, UniProt P23836)", "test": "Sort-seq, item: YFP reporter", "test system": "E. coli", "setting": "PhoQ-PhoP variant library, with: 10 µM Mg2+", "scale": "reference: high Mg2+ state, higher = stronger signaling", "quantity": "fold induction", "result": 21.5}
{"Molecule": "GCCTAGCACTTAGGTTTCCTACAGCTTTAGTGCTAGGTCTTGATTCGCTTGACGCTGCTG", "target": "Interferon regulatory factor 7, full length, phosphomimetic (IRF7, Homo sapiens, UniProt Q92985, residues 1-503, S471D/S472D/S475D/S476D/S477D/S483D/S484D/S487D)", "test": "protein-binding microarray", "test system": "double-stranded DNA, one strand shown, in vitro", "setting": "2200 nM top, 60-bp whole probe, with: salmon DNA 0.4 mg/ml", "scale": "reference: random background probes, higher = stronger binding", "quantity": "fitted relative affinity", "result": "0.575 z-score"}
{"Molecule": "CGCCTGTTACGGCATCAGGGCTTTGGTTTGGGATGGCTGCATGTTTACCAATTGTTCCGGCGGTATGAC", "target": "FOXP2 N303T/S325N N-truncated, polyQ removed", "test": "MITOMI", "test system": "double-stranded DNA, one strand shown, in vitro", "setting": "not given, 69-bp whole dsDNA, apparent Ka, titration fit", "scale": "reference: unmutated reference site, higher = stronger binding", "quantity": "relative association constant", "result": "0.56 fold"}
{"Molecule": "GCCTAGCACCTAGATTTCAGTCTCGATTAGTGCTAGGTCTTGATTCGCTTGACGCTGCTG", "target": "IRF3 S386D/S396D/S398D/S402D/T404D/S405D full length, phosphomimetic", "test": "protein-binding microarray", "test system": "double-stranded DNA, one strand shown, in vitro", "setting": "2540 nM top, 60-bp whole probe, with: salmon DNA 0.4 mg/ml", "scale": "reference: random background probes, higher = stronger binding", "quantity": "fitted relative affinity", "result": "2.36 z-score"}
{"note": "A few entries again (single results of other studies):"}
{"Molecule": "CGCCTGTTACGGCATCAGGGCTTTGGTTTGGGATGGCTGCTTGATTACCAATTGTTCCGGCGGTATGAC", "target": "FOXP2 N303T/S325N N-truncated, polyQ removed", "test": "MITOMI", "test system": "double-stranded DNA, one strand shown, in vitro", "setting": "not given, 69-bp whole dsDNA, apparent Ka, titration fit", "scale": "reference: unmutated reference site, higher = stronger binding", "quantity": "relative association constant", "result": "0.00664 fold"}
